Assay results gathered from unrelated publications.
A part holds a random share of what one study measured.
Sequence of UniProt Q04912 (whole entry, looked up): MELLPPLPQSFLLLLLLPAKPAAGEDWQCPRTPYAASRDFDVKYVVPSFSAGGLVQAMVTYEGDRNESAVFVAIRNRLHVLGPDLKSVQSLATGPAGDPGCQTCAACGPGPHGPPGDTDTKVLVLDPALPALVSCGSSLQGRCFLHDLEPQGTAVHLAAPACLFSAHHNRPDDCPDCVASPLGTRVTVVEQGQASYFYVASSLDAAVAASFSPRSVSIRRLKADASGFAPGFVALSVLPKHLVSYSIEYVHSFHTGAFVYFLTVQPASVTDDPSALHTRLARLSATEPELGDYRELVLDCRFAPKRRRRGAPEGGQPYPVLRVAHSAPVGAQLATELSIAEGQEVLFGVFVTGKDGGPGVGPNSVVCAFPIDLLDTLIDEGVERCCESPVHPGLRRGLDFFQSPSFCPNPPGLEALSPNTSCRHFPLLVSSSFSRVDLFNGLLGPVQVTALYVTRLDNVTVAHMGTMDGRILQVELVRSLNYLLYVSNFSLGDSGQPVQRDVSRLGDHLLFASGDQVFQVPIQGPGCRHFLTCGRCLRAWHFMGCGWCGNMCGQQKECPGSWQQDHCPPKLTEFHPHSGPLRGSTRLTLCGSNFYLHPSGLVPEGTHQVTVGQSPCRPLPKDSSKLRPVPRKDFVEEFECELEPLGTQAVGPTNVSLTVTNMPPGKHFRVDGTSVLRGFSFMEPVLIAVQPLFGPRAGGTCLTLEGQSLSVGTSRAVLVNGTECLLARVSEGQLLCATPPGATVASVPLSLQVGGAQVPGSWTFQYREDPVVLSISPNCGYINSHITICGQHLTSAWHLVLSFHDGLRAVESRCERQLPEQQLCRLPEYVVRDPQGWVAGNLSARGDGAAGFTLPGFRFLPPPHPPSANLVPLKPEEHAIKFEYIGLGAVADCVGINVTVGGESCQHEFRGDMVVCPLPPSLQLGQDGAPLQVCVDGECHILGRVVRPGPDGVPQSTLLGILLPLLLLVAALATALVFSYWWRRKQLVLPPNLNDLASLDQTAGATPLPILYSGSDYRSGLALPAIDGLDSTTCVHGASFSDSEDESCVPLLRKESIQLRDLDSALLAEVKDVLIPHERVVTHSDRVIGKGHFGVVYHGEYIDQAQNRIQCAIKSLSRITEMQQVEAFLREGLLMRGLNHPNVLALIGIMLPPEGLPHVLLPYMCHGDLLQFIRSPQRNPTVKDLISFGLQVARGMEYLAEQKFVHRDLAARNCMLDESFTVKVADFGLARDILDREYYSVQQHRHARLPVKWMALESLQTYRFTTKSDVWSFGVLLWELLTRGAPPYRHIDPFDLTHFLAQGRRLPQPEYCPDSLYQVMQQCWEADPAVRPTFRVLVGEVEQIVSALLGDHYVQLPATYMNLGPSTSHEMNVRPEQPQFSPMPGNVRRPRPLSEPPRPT
Sequence of UniProt Q8IYT8 (whole entry, looked up): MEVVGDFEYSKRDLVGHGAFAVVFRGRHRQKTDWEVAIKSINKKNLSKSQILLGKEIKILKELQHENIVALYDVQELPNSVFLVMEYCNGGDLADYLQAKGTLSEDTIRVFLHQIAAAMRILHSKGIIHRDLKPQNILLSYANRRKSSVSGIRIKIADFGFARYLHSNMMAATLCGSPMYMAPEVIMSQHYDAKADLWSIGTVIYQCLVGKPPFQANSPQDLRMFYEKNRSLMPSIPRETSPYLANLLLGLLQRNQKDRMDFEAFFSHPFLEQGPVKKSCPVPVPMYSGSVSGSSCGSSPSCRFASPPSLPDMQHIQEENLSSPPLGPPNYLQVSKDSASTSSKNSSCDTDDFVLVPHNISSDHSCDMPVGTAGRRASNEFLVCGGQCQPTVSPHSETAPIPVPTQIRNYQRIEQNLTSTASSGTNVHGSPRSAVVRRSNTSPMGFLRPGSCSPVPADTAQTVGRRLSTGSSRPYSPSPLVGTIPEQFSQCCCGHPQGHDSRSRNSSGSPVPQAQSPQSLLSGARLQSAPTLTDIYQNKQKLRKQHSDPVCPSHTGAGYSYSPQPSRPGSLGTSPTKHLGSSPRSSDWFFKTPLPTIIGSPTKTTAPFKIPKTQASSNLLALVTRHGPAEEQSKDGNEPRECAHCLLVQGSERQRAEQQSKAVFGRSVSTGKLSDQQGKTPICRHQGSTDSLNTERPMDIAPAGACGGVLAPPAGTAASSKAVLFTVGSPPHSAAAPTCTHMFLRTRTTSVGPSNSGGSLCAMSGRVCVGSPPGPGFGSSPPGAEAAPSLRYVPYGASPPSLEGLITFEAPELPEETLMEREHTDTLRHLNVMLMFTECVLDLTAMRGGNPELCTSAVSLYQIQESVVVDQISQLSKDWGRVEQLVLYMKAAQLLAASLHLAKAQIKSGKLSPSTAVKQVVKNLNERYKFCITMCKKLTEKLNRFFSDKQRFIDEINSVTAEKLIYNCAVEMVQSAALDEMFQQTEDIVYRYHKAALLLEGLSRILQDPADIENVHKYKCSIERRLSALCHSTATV
Sequence of UniProt P35462 (whole entry, looked up): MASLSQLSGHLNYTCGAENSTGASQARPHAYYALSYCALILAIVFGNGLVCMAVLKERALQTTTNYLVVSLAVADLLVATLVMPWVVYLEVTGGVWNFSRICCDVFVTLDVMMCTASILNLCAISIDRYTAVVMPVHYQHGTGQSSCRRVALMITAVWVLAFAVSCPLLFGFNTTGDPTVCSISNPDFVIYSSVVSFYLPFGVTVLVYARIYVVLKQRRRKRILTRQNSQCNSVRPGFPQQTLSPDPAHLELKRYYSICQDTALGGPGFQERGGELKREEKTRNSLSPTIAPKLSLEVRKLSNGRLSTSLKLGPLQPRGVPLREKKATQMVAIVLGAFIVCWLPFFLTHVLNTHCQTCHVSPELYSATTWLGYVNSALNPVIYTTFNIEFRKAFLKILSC
Sequence of UniProt P49146 (whole entry, looked up): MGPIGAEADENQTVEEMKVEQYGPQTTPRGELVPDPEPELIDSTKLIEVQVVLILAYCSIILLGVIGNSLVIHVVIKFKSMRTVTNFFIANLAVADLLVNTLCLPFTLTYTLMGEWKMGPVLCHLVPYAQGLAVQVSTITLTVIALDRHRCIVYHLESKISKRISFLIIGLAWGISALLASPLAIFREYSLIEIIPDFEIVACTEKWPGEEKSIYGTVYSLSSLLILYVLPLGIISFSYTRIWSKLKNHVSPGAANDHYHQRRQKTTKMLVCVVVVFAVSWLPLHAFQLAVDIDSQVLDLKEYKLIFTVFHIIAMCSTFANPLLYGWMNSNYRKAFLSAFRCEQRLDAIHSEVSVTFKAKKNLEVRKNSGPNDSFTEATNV
Sequence of UniProt P11362 (whole entry, looked up): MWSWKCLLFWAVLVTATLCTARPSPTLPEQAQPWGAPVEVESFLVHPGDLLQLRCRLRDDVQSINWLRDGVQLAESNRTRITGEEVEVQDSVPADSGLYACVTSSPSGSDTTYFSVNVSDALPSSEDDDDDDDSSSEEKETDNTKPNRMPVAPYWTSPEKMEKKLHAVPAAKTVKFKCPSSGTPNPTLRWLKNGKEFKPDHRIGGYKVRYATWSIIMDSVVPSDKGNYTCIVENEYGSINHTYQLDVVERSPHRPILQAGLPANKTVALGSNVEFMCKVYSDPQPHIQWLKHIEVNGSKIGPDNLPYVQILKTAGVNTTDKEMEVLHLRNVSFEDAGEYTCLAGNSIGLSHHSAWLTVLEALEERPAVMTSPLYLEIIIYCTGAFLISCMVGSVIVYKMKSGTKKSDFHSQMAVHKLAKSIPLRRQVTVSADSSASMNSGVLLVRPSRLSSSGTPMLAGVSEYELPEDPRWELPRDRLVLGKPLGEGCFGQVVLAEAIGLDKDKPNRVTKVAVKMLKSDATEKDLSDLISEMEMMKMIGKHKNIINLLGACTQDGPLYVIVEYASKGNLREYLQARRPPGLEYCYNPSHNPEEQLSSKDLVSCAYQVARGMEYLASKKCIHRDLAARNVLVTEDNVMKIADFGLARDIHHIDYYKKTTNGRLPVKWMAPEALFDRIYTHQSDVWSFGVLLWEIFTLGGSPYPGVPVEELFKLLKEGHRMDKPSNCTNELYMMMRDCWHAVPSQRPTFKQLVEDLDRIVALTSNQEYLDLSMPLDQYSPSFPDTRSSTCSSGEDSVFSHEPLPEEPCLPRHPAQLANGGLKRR
Sequence of UniProt O14626 (whole entry, looked up): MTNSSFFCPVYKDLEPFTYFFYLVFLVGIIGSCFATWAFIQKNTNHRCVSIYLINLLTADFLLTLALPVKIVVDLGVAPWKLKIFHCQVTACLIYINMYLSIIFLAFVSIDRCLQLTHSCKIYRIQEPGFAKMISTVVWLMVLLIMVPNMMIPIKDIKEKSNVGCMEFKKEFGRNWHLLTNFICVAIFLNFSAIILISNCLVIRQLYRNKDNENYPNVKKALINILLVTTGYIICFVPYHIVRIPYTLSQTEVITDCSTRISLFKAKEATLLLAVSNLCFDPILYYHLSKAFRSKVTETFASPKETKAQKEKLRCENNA
Sequence of UniProt P78368 (whole entry, looked up): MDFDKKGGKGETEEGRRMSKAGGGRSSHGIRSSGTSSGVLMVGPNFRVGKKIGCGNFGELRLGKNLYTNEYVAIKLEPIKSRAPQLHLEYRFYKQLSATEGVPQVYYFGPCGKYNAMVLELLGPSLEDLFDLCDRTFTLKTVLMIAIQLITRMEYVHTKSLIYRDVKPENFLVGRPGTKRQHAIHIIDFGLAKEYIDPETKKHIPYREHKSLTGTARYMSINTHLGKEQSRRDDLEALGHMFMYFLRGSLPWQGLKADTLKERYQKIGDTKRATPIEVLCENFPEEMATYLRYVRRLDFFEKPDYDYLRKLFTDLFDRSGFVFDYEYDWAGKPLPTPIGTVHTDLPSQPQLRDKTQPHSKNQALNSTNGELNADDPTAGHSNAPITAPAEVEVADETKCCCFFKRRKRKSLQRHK

Series 1 — technique: PRP chromatography; setting: linear fit, 1 mL; endpoint: logD 1,9-decadiene/water
CC(C)C[C@@H]1NC(=O)[C@H](C)NC(=O)[C@@H](CC(C)C)NC(=O)[C@H](C)NC(=O)[C@H](CC(C)C)NC(=O)[C@H](CC(C)C)NC(=O)[C@@H](C(C)C)NC1=O: -0.77 log units
CC(C)C[C@@H]1NC(=O)[C@H](CC(C)C)NC(=O)[C@@H](CC(C)C)NC(=O)[C@H](CC(C)C)NC(=O)[C@@H](CCC(=O)N2CCCC2)NC(=O)[C@H](C)NC(=O)[C@H](C)NC1=O: -1.84 log units
CC(C)C[C@@H]1NC(=O)[C@H](C)NC(=O)[C@H](C)NC(=O)[C@@H](CC(C)C)NC(=O)[C@H](C(C)C)NC(=O)[C@H](CC(C)C)NC(=O)[C@@H](CC(C)C)NC1=O: -0.765 log units
CC(C)C[C@@H]1NC(=O)[C@H](CC(C)C)NC(=O)[C@@H](C(C)C)NC(=O)[C@H](C)NC(=O)[C@@H](Cc2cscn2)NC(=O)[C@@H](CC(C)C)NC(=O)[C@H](C)NC1=O: -1.68 log units
CC(C)C[C@@H]1NC(=O)[C@H](C(C)C)NC(=O)[C@H](Cc2cscn2)NC(=O)[C@@H](CC(C)C)NC(=O)[C@@H](CCC(=O)N2CCCC2)NC(=O)[C@H](CC(C)C)NC(=O)[C@@H](CC(C)C)NC1=O: -1.2 log units

Series 2 — Structure (SMILES): CCN(c1nc(N)c(C(=O)N=C(N)N)nc1Cl)C(C)C; read-out: β-arrestin recruitment; action: agonist; technique: PRESTO-Tango; tested at: 10 µM; baseline: untreated; endpoint: fold over basal
GALR1 (Homo sapiens, UniProt P47211): 0.78 fold
G-protein coupled receptor 171 (GPR171, Homo sapiens, UniProt O14626): 0.88
Metabotropic glutamate receptor 6 (Homo sapiens, UniProt O15303): 0.8 fold
DRD3 (Homo sapiens, UniProt P35462): 1.84
NPY2R (Homo sapiens, UniProt P49146): 0.97

Series 3 — read-out: enzyme activity; action: inhibitor; tested at: 0.5 µM; baseline: control; endpoint: remaining activity
SMILES: CC(C)(C)n1nc(Cc2cccc3ccccc23)c2c(N)ncnc21
CSNK1G2 (Homo sapiens, UniProt P78368): 101%
GSK3B (Homo sapiens, UniProt P49841): 99.8%
FGFR3 (Homo sapiens, UniProt P22607): 94.6%
MAP2K2 (Homo sapiens, UniProt P36507): 102%
MERTK (Homo sapiens, UniProt Q12866): 94.5%
RPS6KA2 (Homo sapiens, UniProt Q15349): 88.2%
EPHA3 (Homo sapiens, UniProt P29320): 80.5%
ULK2 (Homo sapiens, UniProt Q8IYT8): 96.1%
MAP3K14 (Homo sapiens, UniProt Q99558): 102%
NEK6 (Homo sapiens, UniProt Q9HC98): 109%
MST1R (Homo sapiens, UniProt Q04912): 98.1%
FGFR1 (Homo sapiens, UniProt P11362): 73.8%
JAK3 (Homo sapiens, UniProt P52333): 99.3%
TBK1 (Homo sapiens, UniProt Q9UHD2): 99.4%

Series 4 — action: inhibitor; tested at: 10 µM; baseline: control; endpoint: remaining activity
Target: Diamine acetyltransferase 1 (Homo sapiens, UniProt P21673)
Construct (P21673 1-171): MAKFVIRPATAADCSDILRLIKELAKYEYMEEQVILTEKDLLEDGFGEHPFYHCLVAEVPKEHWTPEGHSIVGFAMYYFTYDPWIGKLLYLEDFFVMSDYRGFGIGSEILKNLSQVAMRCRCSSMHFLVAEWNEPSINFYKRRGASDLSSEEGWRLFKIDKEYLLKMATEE
OC[C@H]1O[C@@H](Oc2cc(O)cc(/C=C/c3ccc(O)cc3)c2)[C@H](O)[C@@H](O)[C@@H]1O: 92.8%
N[C@@H](CCO)C(=O)O: 114%
COc1cc([C@H]2OC[C@H]3[C@@H]2CO[C@@H]3c2ccc(O)c(OC)c2)ccc1O: 92.7%
CC(C)=CCC/C(C)=C\CO: 100%
NCc1ccc(O)cc1: 107%
CC(=O)O[C@@H]1[C@@H](O)[C@H](O[C@H]2CC[C@]34C[C@]35CC[C@]3(C)[C@@H]([C@@]6(C)CC[C@@H](C(C)(C)O)O6)[C@@H](O)C[C@@]3(C)[C@@H]5C[C@H](O[C@@H]3O[C@H](CO)[C@@H](O)[C@H](O)[C@H]3O)[C@H]4C2(C)C)OC[C@H]1O: 108%
CCCCCCC/C=C/C(=O)CCc1ccc(O)c(OC)c1: 109%
O=c1c(O)c(-c2ccc(O)c(O)c2)oc2c(O[C@@H]3O[C@H](CO)[C@@H](O)[C@H](O)[C@H]3O)c(O)cc(O)c12: 103%

A few entries again (series 4):
N[C@@H](CCO)C(=O)O: 114%
COc1cc([C@H]2OC[C@H]3[C@@H]2CO[C@@H]3c2ccc(O)c(OC)c2)ccc1O: 92.7%
